Assay results pooled from the literature.
A part holds a random share of what one study measured.

Study 1
Target: Histone acetyltransferase KAT6A, winged helix 2, GST fusion (KAT6A, Homo sapiens, UniProt Q92794, residues 85-181)
Method: protein binding microarray
Molecule type: double-stranded DNA, one strand shown
Matrix: in vitro
Tested at: not given
Setting: 8-mer, flanks averaged, mean of 2 arrays, mostly near background
Relative to: not given
Direction: higher = stronger binding
Residues (chain): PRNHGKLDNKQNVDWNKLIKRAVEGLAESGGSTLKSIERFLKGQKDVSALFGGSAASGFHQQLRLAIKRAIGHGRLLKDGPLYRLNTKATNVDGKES
Strand	E-score
ACCCACCT	-0.134
AATGAAAT	0.154
TACGACCA	-0.0248
ACAATGAC	-0.188
ACAAATTC	0.0355
GCTCGCGA	0.154
AAGCCACA	-0.0147
GACTTTGC	-0.114
ACCCGACG	0.0514
AGGTAAAC	0.121
ATCGATCG	-0.11
ATTACAAG	-0.126
AAGGAAGT	-0.018
ATCTTACA	-0.0647
ACACTCTG	0.0428
AGAAGAGG	-0.0675
GACCTAGA	-0.0508
GAGGCCTA	-0.128
ACTAGCCT	-0.138

Study 2
Target: RNA binding protein fox-1 homolog 2, RRM domain, GST-SBP tag (RBFOX2, Homo sapiens, UniProt O43251-10, residues 100-194)
Method: RNA Bind-n-Seq
Molecule type: RNA
Matrix: in vitro
Tested at: 365 nM
Setting: natural RNA segment, single round, ends assumed
Relative to: no-protein control
Direction: higher = stronger binding
Target sequence (chain): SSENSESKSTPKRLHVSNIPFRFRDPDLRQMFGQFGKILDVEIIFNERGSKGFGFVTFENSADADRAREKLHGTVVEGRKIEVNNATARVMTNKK
Strand	RBNS enrichment (R)
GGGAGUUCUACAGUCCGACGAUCGUGUUGUAAGGCCUAUGCCAAGGAUAAAGGAAGGGUAUGCCUUUGGGUACUCCAGGCACACACCUUUCUGAAAUCCUUCUCCAGCCAGCUGCUGCAGACAAAAGAUCACAUGGAAUUCUCGGGUGCCAA	0.288
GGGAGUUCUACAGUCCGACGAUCGAUGCUGUGUUUUGUAUGUUAGUUACACAACUUUGUGUCCUGCCAGGUCAUGUUCUAAAAUUAAGGCUGAGAAAGGUGUGAGGUCGAAGAUCUCAGGCAGCGCUGUUUCCUGGAAUUCUCGGGUGCCAA	0.702
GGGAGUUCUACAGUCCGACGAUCACAUGGAAGUAGACCGGCUCUGCUGAUUUGAAAUUUAGAUUUUUUUUUAAUUAUGUACUGGGGACAGGUUUUUGUCGCUUUACAUUGCUUCCUAGUUUACAGCAUGAUGCUGGAAUUCUCGGGUGCCAA	1.18
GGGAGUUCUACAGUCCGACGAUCUUUUUGACCUUUCUUCUCUCAACAGGAACCUGCCUGAGGACACCCUUCUAGAGCAAGGAAUUGACUUUUAGGAGCCGUUCUCCCCACAAGACACCACAUGACAAGGGGUAUGGAAUUCUCGGGUGCCAA	0.342
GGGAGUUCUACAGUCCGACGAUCUUAUAAGUUUAAGGUCAGCUGUCAAAAGGAUAACCUGUGGGGUUAGAACAUAUCACAUUGCAACACCCUAAAUUGUUUUUAAUACAUUAGCAAUCUAUUGGGUCAACUGAUGGAAUUCUCGGGUGCCAA	0.341
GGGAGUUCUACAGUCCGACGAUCAAAACAAAACAAAAAAAACACUUAAUAUUUCAGACUGUUACAGGAAACACCCUUUAGUCUGUCAGUUGAAUUCAGAGCACUGAAAGGUGUUAAAUUGGGGUAUGUGGUUUUGGAAUUCUCGGGUGCCAA	0.819
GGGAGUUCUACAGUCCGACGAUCAUUACCUUACUUAAGGAUAAUAGGACAAGACAAAUUACAGAUUGUCUCAGAGAAAACAAAUGAGUUACUCUCUCGGACAAGCUGUAGGUCCUACCUAAAUGUCCAGCAGGUGGAAUUCUCGGGUGCCAA	0.283
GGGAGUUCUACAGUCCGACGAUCAAAGAGAAGCUGCCACAGGUUGUACUUGCUCUGUGAGAUGUUGUAGACAUUCCGUAAGAGAAUCCAGAAUGAUAGCAGGAUCAGGAAAGAAAUGGAGCCAAAUCUGCUCUUGGAAUUCUCGGGUGCCAA	1.11
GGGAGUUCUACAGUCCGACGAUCGUCGCUGGAGUAAAAUCUUGCCUUUAGAAACUAGGUUGAGCUGUUCAGAAAGGUCAAUUCUCUUCUGUAUUCCCCCUCAACAUUUAUCUGGGUCUAAAGCUCAGCACUGAUGGAAUUCUCGGGUGCCAA	0.316
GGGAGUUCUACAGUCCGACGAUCCUAACGUUUGUCUCUGACAAGAUCAGCUGUAGGCUCACCGGCCAGAGAAGACCACUGUGAGCAUUUUGCCGUAUAUCCUGCCCUGCCAUUUGUUCACUUUUUAAACUAAAUGGAAUUCUCGGGUGCCAA	0.379
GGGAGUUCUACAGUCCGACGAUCAGUGCUCCCAAGAGCAGCUCCUACGUGGUGCUGCCCGACACCAGCACAUGAGGGGCCGCUCUUCUGUCCUGUGGAGCUCCUGCCCUGCCAGCUCUCCAUGCUGAGCUGUGUGGAAUUCUCGGGUGCCAA	3
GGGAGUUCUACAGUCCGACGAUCCCUCUCCCAGCUCUUCCCUUUCCCAGUUGUCCCCACUGUAACUCAAAAGGAUGGAAUACCAAGGUCUUUUUAUUCCUCGUGCCCAGUUAAUCUUGCUUUUGUUGGUCAGAUGGAAUUCUCGGGUGCCAA	0.707

Study 3
Target: Interferon regulatory factor 7, full length, phosphomimetic (IRF7, Homo sapiens, UniProt Q92985, residues 1-503, S101K/S471D/S472D/S475D/S476D/S477D/S483D/S484D/S487D)
Sequence of UniProt Q92985 (whole entry, unmodified, looked up): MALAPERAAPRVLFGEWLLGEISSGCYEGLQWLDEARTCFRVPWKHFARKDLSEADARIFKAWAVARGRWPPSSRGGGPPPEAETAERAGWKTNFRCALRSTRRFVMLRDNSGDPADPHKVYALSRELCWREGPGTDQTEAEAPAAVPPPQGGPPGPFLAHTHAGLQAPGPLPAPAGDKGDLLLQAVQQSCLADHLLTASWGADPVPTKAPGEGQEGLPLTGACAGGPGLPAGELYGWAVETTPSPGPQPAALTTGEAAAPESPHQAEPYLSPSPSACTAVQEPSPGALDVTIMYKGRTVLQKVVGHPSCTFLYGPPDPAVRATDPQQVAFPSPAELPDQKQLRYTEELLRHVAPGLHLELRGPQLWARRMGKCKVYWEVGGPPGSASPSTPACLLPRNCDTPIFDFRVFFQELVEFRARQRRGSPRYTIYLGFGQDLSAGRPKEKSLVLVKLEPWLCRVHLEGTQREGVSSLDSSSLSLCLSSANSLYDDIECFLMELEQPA
Method: protein-binding microarray
Molecule type: double-stranded DNA, one strand shown
Matrix: in vitro
Tested at: 250 nM
Setting: 60-bp whole probe
With: salmon DNA 0.4 mg/ml
Relative to: random background probes
Direction: higher = stronger binding
Shared flanks, not repeated: GCCTAGCAC … GTCTTGATTCGCTTGACGCTGCTG
Strand	log fluorescence [z-score]
GAAGCCAGCTCTTTCGTTACGTGCTAG	-0.365
TCAAGTCTGGGAGATGAAACTGTGCTA	-0.601
TTAGGTCTCCTTATCCTCTAGTGCTAG	0.564
AGGGTCTTCAGGTTCTCCCCGTGCTAG	-0.167
TTAGTACTGGGGTTTCGATTAGTGCTA	5.56
TTAGGTTTCCTGATCCTTTAGTGCTAG	1.11
TTAGGTTTCGGGTATCGTTTAGTGCTA	8.3
GACGATTTCAGTTTGGAGACGTGCTAG	0.773
TCAGTTTGCCCTATTTAACTGTGCTAG	1.89
GTAGGTATCGGGACTGGGTTAGTGCTA	-0.469
TTAGGTTCCGGGTATCGGTTAGTGCTA	2.86
TTAGGTTTCCTCCTCCTTTAGTGCTAG	1.04
TTAGAACTGAGGACTGGATTAGTGCTA	-0.372
GACGGCATCGACTATCGGGACGTGCTA	-1
TTAGATTACAGTTCCGATTAGTGCTAG	1.26
GTAGAACTGAGACTGGATTAGTGCTAG	-0.444

Study 4
Target: PABPC1L2, full length, GST fusion (mouse, UniProt A0ABA7IW68)
Method: RNAcompete
Molecule type: RNA
Matrix: in vitro
Tested at: 20 nM
Setting: 7-mer, probes averaged, single round
Relative to: mean of 7-mers
Direction: higher = stronger binding
Target sequence (chain): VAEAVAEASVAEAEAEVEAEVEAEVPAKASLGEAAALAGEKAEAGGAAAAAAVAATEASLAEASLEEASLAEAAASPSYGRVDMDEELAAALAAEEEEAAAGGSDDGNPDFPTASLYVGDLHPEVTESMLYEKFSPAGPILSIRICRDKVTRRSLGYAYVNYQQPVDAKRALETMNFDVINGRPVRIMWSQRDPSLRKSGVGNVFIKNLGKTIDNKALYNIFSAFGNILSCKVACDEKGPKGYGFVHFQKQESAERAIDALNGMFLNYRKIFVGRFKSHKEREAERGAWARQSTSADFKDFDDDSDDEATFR
Strand	7-mer Z-score
CGCGUAC	-0.211
UAUGAGU	-0.267
AUGGACU	-0.0192
AUACCUC	-0.264
GAGUUGA	-0.0989
UUGGGAG	0.0533
GGCGUGG	0.126
UUGAAUC	-0.15
GGAAGAU	-0.0428
CUUUGAG	-0.0464
UUAGGGG	0.244
GCCGUGA	-0.195
GUCGACA	-0.159
UUCCAAA	0.416
UGAUGAA	-0.0863
UGCACUA	-0.211

Study 5
Target: RING finger protein unkempt homolog, zinc fingers 1-6, GST-SBP tag (UNK, Homo sapiens, UniProt Q9C0B0, residues 30-357)
Sequence of UniProt Q9C0B0 (30-357, looked up): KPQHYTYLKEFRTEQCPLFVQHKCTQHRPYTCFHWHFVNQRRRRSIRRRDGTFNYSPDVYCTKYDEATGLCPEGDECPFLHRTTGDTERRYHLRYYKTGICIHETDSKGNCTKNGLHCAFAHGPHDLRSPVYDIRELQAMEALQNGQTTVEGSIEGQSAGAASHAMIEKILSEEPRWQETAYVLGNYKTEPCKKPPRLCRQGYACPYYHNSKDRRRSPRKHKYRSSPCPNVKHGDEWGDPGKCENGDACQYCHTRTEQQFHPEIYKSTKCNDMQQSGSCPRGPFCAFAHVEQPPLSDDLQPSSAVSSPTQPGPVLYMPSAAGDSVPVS
Method: RNA Bind-n-Seq
Molecule type: RNA
Matrix: in vitro
Tested at: not given
Setting: RNA with constant flanks, human and mouse sites, ends assumed
Relative to: input RNA pool
Direction: higher = stronger binding
Strand	bound/input enrichment [ratio]
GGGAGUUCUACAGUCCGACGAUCCGAGUAGUUGGCAAAGAGCAGGGCCAGAAUUUAGCAAGACAGUGGUGUAACUGUGCCUUUUUAGAAUCUUCUGCAAAGUCAAAGAUCAAUGUUAAUGAGAUAUUUUAUGACCUGGUCAGACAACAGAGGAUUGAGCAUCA	2.9
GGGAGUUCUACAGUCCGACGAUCUAGAGCUAGAUUCAAUCAGGUGUCUGAAAUGUGAGUUAAACAUUACUUUAUCCUUUGGUGUAGUUCUUAUUAUUUUCCAUUUAUUGUGCCUCUGGCAGCAGUGUUCCCUUUGAAAGGCCCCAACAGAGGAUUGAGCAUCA	1.3
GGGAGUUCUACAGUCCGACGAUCCACAGAGGAGAUCUGCUGUUCCUCACGAAUUUCCGGGAGGACCCCAUCAGAGCUGGUGAAAUAGUUGUUUUUAAGGUUGAAGGAAGAGACAUUCCGAUAGUUCACAGAGUAAUCAAGGUUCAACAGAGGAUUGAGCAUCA	2.63
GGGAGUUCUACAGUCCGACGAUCGUCCCACCAGCACUCGGCAGUAAUCUGGCUGACAAUGUCAUGAUUACUGUAGAUAUUAUUCCUUCUGGUUGGAAUUCAACUGAUGGGAAAAAUGAUAAAGCUAAAAGUGCACCUUCAAGACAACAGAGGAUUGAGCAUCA	0.128
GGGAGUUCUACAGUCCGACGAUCUGGACUACCAAGCAUGUAGCUGUGUGGCUGAAGGAUGAAGGCUUUUUUGAAUAUGUGGACAUUUUAUGCAAUAAGCACCGACUUGAUGGAAUCACAUUGCUAACAUUGACUGAAUAUGAUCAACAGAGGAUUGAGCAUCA	0.235
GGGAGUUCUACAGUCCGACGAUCUGAUUCAUACUGUUAAAUUGAGAGAGGAAACCUUGUGGUUAAAAAUUAUAUGGCUGCUGUUUUCUUUUUGCAGUCAGUGGUCAAAACUGAUCAUGUGCUUAAAUCGAUUUUUAUGCACAGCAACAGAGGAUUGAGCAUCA	0.229
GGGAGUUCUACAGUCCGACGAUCUAGGCCUGUGUUAUAUGUUAUAUUUAGCCUUUUUAUAUAUGACCCUUGAUCUGUUUGUAUUUGAACACUGUGUGUGUCCACUUUAAUACAUUUGUGCAGACAUGCACAUUACAUACGUGUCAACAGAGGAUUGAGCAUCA	13.6
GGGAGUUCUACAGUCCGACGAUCAAAAAAGAAAAAUCGAGUUUUCUUUUCAAAGGAGAUGGAUCCAAGCCUUUAGAGCCAGCCAAGCAAGCCAUGUCUCCUUCUGUGGCCGAAUGUGCCAGAGCUGUGUUUGCUUCCUUCCUCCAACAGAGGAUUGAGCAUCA	0.187
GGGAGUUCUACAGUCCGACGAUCAUGAAGACUCGAAGAGGAGGGGUCACUUUUCUGGAAGAUGUCUUAAAUGAGGUUCAAUCAAGGAUGCUACAGAACAUGGCUUCCAUUAAGACCACGAAACAAUUGGAGAACCCUCAGGAGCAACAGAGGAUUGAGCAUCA	0.209
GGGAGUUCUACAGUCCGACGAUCGCCAUUGCUAUGCACUUCAACCUCUCUACCAGCCAGGUCCCUGCCAAGACAGACUGUGUCAUGUUCUUCGGACCUGUGGUCCCAGAUGGUUAUGGCAUCUGCUACAACCCCAUGGAGGCCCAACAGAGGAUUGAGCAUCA	0.118
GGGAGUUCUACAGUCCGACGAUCGGGGCUGAUUUUUAUUUCUUUGGGGGCUUUUUUUCUUGGCAAAUACUAAAAAUCUCGUCAAUGUAAUUUCUGUGGUUUCUAUUCAGCUUGGGUUUCAUGUUUUAAAAUAAAUUUUAAAAACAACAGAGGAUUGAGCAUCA	0.868

Excerpt of the above (study 3):
Strand	log fluorescence [z-score]
TCAAGTCTGGGAGATGAAACTGTGCTA	-0.601
TTAGGTCTCCTTATCCTCTAGTGCTAG	0.564
AGGGTCTTCAGGTTCTCCCCGTGCTAG	-0.167
TTAGTACTGGGGTTTCGATTAGTGCTA	5.56
